Measurements pooled from the literature.
Compare with care: the assays were run in different laboratories. Values joined by “and” are separate records of one study, mostly repeats; a detail may differ. ± marks the error that the study gave.

CC[C@@H](C)[C@@H](NC(=O)[C@@H](Cc1ccc(O)cc1)NC(=O)[C@H]1CCCN1C(=O)[C@@H](CCCNC(=N)N)NC(=O)[C@H](N)Cc1c[nH]cn1)C(=O)N[C@H](C)C(=O)N[C@H](Cc1c[nH]cn1)C(=O)N[C@H](CCCNC(=N)N)C(=O)N[C@@H](C(=O)N[C@H](Cc1ccc(O)cc1)C(=O)N[C@H](CO)C(=O)N[C@H](Cc1ccccc1)C(N)=O)C(C)C
remaining compound (10% human serum; 12 h): 94.6% and 89.6% and 94.3%

COc1c(N2CC3CCCNC3C2)c(F)cc2c(=O)c(C(=O)OCc3cnc([N+](=O)[O-])s3)cn(C3CC3)c12 (stereo not drawn)
remaining compound (LC-MS; human serum; 30 µM, 2 h; reference: initial amount): > 65%

CC(=O)OC/C(C)=C/CCP(=O)(OCOC(=O)c1ccccc1)Oc1ccc(C(C)C)cc1 (stereo not drawn)
remaining compound (50% CD1 mouse plasma; 100 µM, 2 h, pH 7.5, 37 °C): 0%

O=S(=O)(F)Oc1cc(C(F)(F)F)cc(C(F)(F)F)c1
remaining compound (HEPES buffer; 1 mM, 20 h, pH 7.4, 10% acetonitrile): 9%

COc1ccc(C(=O)OCOP(=O)(CC/C=C(\C)CO)Oc2ccc(C(C)C)cc2)cc1 (stereo not drawn)
remaining compound (50% Sprague-Dawley rat plasma; 100 µM, 2 h, pH 7.5, 37 °C): 42%

CCN(CC)CCOC(=O)c1ccc(N)cc1
remaining compound (human plasma; 24 h): 0%

Fc1ccc(N2CCNCC2COc2ccc3c(c2)OCO3)cc1 (stereo not drawn)
remaining compound (mouse liver microsomes; 90 min): 53 ± 1%

c1ccc([C@@H]2C[C@H]2NC2CCNCC2)cc1
remaining compound (aqueous buffer; 4 days, 37 °C): 96%

C/C(=C\CCP(=O)(OCOC(=O)CC1CCCCC1)Oc1ccc(C(C)C)cc1)CO (stereo not drawn)
remaining compound (50% CD1 mouse plasma; 100 µM, 2 h, pH 7.5, 37 °C): 0%

CCC[C@@](N)(CO)CCc1ccc(OCCCCCC(C)C)cc1
remaining compound (dog liver microsomes; 1 h): 88%

O=S(=O)(F)c1cc(C(F)(F)F)cc(C(F)(F)F)c1
remaining compound (HPLC-MS; HEPES buffer with 10% acetonitrile; 1 mM, 1 h, pH 7.4): 98%

CC(C)(C)[C@H](NC(=O)C(F)(F)F)C(=O)N1C[C@H]2[C@@H]([C@H]1C(=O)N[C@H](C#N)C[C@@H]1CCNC1=O)C2(C)C
remaining compound (mouse liver microsomes; 60 min): 105%

CC(=O)OC/C(C)=C/CCP(=O)(OCOC(=O)CC1CCCCC1)Oc1ccc(C(C)C)cc1 (stereo not drawn)
remaining compound (50% Sprague-Dawley rat plasma; 100 µM, 2 h, pH 7.5, 37 °C): 0.021%

CC[C@@H](C)[C@@H](NC(=O)[C@@H](Cc1ccc(O)cc1)NC(=O)[C@H]1CCCN1C(=O)[C@@H](CCCNC(=N)N)NC(=O)[C@H](N)Cc1c[nH]cn1)C(=O)N[C@H](C)C(=O)N[C@H](Cc1c[nH]cn1)C(=O)N[C@H](CCCNC(=N)N)C(=O)N[C@H](CCCCNC(=O)c1cccc(S(=O)(=O)F)c1)C(=O)N[C@H](Cc1ccc(O)cc1)C(=O)N[C@H](CO)C(=O)N[C@H](Cc1ccccc1)C(N)=O
remaining compound (10% human serum; 24 h): 108% and 90%

CC(=O)OC/C(C)=C/CCP(=O)(OCOC(=O)CC1CCOCC1)Oc1ccc(C(C)C)cc1 (stereo not drawn)
remaining compound (50% CD1 mouse plasma; 100 µM, 2 h, pH 7.5, 37 °C): 0%

CC(C)CC(=O)OC[C@H]1O[C@@](C#N)(c2ccc3c(N)ncnn23)[C@H](O)[C@@H]1O
remaining compound (Mice plasma; 5 µM, 60 min): 0%

CC(=O)OC/C(C)=C/CCP(=O)(OCOC(=O)C1CCOCC1)Oc1ccc(C(C)C)cc1 (stereo not drawn)
remaining compound (50% Sprague-Dawley rat plasma; 100 µM, 2 h, pH 7.5, 37 °C): 0%

CC[C@H](C)[C@H](NC(=O)[C@H](CCCCN)NC(=O)[C@H](CC(N)=O)NC(=O)[C@H](CCCNC(=N)N)NC(=O)[C@H](C)NC(=O)[C@H](CC(C)C)NC(=O)[C@H](CC(C)C)NC(=O)[C@H](CCSC)NC(=O)[C@H](Cc1c[nH]cn1)NC(=O)[C@H](CC(C)C)NC(=O)[C@@H](N)CC(C)C)C(=O)N[C@@H](CCCNC(=N)N)C(=O)N[C@H](C(=O)N[C@@H](CC(C)C)C(=O)N[C@@H](CCCCN)C(=O)N[C@@H](CC(N)=O)C(=O)N[C@@H](CC(N)=O)C(=O)N[C@@H](CCSC)C(=O)N[C@@H](Cc1ccccc1)C(=O)N[C@@H](CO)C(=O)N[C@@H](CCCCN)C(=O)N[C@@H](Cc1ccccc1)C(=O)N[C@@H](CCCCN)C(=O)N[C@@H](CCCCN)C(=O)N[C@@H](CC(C)C)C(=O)N[C@@H](CCCCN)C(=O)N[C@@H](CO)C(=O)N[C@@H](CC(C)C)C(=O)O)[C@@H](C)O
remaining compound (UPLC-MS; 25% human serum; 6 h): ≤ 65%

Excerpt of the above:
CC(=O)OC/C(C)=C/CCP(=O)(OCOC(=O)C1CCOCC1)Oc1ccc(C(C)C)cc1 (stereo not drawn)
remaining compound (50% Sprague-Dawley rat plasma; 100 µM, 2 h, pH 7.5, 37 °C): 0%

CC(=O)OC/C(C)=C/CCP(=O)(OCOC(=O)CC1CCOCC1)Oc1ccc(C(C)C)cc1 (stereo not drawn)
remaining compound (50% CD1 mouse plasma; 100 µM, 2 h, pH 7.5, 37 °C): 0%

CC(C)(C)[C@H](NC(=O)C(F)(F)F)C(=O)N1C[C@H]2[C@@H]([C@H]1C(=O)N[C@H](C#N)C[C@@H]1CCNC1=O)C2(C)C
remaining compound (mouse liver microsomes; 60 min): 105%
